Assay results pooled from the literature.
A part holds a random share of what one study measured.
UniProt Q9NY57, sequence (whole entry, looked up): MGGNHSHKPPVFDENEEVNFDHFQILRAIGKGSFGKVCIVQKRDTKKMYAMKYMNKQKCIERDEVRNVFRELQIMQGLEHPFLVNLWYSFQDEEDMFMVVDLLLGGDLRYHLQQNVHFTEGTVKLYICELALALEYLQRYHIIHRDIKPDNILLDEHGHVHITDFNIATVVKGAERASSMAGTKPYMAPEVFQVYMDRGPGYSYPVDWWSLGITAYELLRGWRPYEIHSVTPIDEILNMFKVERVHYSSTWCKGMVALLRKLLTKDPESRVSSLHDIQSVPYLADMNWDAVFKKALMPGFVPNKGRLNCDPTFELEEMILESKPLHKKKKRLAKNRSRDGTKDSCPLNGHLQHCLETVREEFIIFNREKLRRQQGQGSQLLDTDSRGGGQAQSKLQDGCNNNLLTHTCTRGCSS
UniProt Q02156, sequence (whole entry, looked up): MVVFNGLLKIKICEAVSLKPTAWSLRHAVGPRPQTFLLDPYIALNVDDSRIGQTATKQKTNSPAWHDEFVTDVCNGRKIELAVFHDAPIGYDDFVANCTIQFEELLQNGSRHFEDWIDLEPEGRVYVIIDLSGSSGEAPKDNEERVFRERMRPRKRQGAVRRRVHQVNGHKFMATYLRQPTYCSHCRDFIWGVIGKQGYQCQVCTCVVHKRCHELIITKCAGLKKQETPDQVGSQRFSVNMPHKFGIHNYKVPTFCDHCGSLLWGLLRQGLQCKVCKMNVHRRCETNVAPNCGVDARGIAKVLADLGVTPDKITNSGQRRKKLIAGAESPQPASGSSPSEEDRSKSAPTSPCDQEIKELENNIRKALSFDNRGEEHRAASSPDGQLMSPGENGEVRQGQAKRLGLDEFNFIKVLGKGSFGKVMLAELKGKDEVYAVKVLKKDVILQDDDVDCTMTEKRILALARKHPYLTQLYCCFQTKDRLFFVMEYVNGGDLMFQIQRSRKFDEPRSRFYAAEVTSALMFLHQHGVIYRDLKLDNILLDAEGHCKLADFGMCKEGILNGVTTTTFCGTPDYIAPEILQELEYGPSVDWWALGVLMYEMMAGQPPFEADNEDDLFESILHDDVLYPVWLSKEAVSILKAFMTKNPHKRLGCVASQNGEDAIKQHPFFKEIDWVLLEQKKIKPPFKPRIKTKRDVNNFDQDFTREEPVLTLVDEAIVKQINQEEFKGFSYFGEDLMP
UniProt P42336, sequence (whole entry, unmodified, looked up): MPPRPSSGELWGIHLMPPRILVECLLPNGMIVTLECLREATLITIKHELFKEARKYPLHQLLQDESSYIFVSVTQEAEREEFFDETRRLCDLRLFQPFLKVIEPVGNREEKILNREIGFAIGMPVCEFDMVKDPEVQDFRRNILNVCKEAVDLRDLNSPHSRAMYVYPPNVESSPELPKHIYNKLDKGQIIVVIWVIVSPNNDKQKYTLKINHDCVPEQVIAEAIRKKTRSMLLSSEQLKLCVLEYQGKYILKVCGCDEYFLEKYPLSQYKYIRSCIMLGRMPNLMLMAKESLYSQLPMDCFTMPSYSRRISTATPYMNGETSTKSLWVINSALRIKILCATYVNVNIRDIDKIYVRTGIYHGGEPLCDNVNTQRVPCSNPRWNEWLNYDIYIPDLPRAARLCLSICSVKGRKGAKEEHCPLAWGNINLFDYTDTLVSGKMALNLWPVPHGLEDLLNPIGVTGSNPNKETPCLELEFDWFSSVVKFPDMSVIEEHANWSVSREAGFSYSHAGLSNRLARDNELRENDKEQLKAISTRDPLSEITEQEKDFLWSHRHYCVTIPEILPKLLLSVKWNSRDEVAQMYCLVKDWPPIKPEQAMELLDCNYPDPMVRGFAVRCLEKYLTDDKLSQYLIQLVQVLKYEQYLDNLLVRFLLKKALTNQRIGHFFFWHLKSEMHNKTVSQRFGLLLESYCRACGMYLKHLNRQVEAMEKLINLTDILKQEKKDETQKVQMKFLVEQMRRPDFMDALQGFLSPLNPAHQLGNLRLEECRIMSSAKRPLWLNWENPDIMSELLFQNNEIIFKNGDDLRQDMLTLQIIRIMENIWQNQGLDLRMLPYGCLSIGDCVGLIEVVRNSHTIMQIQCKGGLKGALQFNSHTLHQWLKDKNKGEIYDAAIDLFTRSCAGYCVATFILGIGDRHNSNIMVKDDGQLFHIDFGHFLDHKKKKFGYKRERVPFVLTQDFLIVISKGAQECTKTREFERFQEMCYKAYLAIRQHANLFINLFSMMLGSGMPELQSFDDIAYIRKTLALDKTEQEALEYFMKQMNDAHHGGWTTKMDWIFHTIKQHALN
UniProt Q15569, sequence (whole entry, looked up): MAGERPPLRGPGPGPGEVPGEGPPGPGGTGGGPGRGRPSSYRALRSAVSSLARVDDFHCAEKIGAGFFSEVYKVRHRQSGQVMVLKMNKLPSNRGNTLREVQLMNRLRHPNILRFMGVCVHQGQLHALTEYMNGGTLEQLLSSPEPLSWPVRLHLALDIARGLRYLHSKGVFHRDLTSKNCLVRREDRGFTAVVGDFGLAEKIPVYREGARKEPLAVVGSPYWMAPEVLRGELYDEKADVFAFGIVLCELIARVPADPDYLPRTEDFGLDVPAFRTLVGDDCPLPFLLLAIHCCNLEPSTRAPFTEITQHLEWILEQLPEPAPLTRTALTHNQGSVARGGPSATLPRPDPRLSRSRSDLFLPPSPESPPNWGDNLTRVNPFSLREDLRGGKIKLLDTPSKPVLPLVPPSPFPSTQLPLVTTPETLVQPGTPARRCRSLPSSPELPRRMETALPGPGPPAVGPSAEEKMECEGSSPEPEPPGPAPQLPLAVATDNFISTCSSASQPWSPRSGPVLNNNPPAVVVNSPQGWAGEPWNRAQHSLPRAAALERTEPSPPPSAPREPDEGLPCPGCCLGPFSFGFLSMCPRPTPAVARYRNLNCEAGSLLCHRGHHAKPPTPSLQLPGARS
UniProt O95382, sequence (whole entry, looked up): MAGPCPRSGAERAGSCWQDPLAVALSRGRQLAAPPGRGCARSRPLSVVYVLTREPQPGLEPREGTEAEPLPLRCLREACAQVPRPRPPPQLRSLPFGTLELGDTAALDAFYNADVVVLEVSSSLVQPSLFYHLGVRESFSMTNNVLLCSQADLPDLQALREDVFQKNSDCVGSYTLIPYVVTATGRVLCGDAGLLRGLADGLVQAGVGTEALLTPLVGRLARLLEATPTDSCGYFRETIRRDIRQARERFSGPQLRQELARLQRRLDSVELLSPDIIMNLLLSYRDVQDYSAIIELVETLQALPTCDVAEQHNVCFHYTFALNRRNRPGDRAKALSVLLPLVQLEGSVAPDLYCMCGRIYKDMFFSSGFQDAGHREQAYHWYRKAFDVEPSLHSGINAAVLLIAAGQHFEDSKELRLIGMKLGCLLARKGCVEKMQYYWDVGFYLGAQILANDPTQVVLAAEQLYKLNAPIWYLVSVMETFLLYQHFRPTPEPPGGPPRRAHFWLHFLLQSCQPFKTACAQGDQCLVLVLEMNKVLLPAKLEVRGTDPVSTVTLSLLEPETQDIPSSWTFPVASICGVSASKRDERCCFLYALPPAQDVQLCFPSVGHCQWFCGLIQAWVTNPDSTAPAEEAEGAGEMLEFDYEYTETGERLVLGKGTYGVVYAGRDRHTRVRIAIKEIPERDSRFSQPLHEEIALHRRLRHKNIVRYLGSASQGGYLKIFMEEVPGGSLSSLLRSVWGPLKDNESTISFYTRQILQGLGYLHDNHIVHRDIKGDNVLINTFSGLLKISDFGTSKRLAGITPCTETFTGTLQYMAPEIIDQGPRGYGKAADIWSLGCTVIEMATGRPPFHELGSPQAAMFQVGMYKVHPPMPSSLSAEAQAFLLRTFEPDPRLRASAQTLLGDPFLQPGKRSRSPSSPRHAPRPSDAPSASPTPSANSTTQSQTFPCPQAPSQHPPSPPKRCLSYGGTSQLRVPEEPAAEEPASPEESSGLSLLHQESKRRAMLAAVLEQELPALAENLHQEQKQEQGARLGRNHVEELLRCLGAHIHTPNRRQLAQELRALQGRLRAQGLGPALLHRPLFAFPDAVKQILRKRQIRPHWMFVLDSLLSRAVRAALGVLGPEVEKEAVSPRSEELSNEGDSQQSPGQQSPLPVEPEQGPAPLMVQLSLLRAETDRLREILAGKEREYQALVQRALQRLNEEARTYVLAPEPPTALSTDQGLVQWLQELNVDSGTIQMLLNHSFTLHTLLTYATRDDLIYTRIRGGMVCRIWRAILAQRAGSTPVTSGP
UniProt P28482, sequence (whole entry, looked up): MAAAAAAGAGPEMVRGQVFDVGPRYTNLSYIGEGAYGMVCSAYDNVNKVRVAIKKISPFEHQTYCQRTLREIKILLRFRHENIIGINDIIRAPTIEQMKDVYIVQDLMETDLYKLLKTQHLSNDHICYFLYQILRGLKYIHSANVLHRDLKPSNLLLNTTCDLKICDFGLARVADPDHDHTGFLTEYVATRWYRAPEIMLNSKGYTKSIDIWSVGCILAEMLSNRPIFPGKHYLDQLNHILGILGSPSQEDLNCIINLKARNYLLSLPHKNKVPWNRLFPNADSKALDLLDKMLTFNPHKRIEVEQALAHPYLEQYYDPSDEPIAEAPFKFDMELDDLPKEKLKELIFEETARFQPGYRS

Block 1 — effect on: enzyme activity; mode: inhibitor; tested at: 0.5 µM; reference: control
Target: Ribosomal protein S6 kinase beta-2 (RPS6KB2, Homo sapiens, UniProt Q9UBS0)
UniProt Q9UBS0, sequence (whole entry, looked up): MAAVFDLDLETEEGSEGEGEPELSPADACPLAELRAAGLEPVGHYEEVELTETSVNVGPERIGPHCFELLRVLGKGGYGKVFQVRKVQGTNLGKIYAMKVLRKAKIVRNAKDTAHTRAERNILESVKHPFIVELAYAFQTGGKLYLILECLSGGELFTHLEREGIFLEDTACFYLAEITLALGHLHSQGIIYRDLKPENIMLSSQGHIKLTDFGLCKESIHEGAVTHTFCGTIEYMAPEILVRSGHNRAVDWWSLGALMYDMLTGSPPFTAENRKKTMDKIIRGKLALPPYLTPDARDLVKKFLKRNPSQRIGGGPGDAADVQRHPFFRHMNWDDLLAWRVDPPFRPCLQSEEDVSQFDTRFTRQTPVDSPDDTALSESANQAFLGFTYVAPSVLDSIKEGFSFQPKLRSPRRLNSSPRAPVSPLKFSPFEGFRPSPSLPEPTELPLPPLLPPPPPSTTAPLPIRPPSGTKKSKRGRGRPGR
Structure (SMILES) | remaining activity [%]
N#Cc1c(NC(=O)c2cccc3ccccc23)sc2c1CCCC2 | 100
c1ccc(-c2cnc(Nc3ccc(OCCN4CCCC4)cc3)s2)cc1 | 92.7
CCOc1nc(NC(=O)Cc2cc(OC)ccc2OC)cc(N)c1C#N | 96
O=C(Nc1cccc(Nc2nccc(Nc3cccc(C(F)(F)F)c3)n2)c1)C1CC1 | 96
CN([C@@H](Cc1ccc(OS(=O)(=O)c2cccc3cnccc23)cc1)C(=O)N1CCN(c2ccccc2)CC1)S(=O)(=O)c1cccc2cnccc12 | 96.6
COc1cc2c(cc1OC)-c1[nH]nc(Nc3cccc(F)c3)c1C2 | 100
O=C1c2ccccc2-c2n[nH]c3cccc1c23 | 108
Cc1nc2cc3nc(-c4cccs4)cnc3cc2n1C | 98
COc1cc2ncnc(Nc3ccc(O)c(Br)c3)c2cc1OC | 102
Ic1cccc(CSc2nnc(-c3ccncc3)o2)c1 | 103
O=c1cc(-c2cccc3c2Sc2ccccc2S3)oc(N2CCOCC2)c1 | 102
O=C1C(Cl)=C(N2C(=O)CCC2=O)C(=O)c2ccccc21 | 102
C[C@@H]1CCN(C(=O)CC#N)C[C@@H]1N(C)c1ncnc2[nH]ccc12 | 100
COc1cc2ncnc(Nc3cccc(Cl)c3)c2cc1OC | 105
Cc1cc2ncc(-c3ccccc3)nc2cc1C | 98.7
Nc1cccc(-c2cc3c(Oc4cccc(O)c4)ncnc3[nH]2)c1 | 94.7
CCN(CC)C(=O)c1ccc(Nc2nc(OCC3CCCCC3)c3[nH]cnc3n2)cc1 | 102
Cn1nc2c3c(cccc31)C(=O)c1ccccc1-2 | 94.7
Cc1cn(-c2cc(NC(=O)c3ccc(C)c(Nc4nccc(-c5cccnc5)n4)c3)cc(C(F)(F)F)c2)cn1 | 100
O=C(NC(NC(=S)Nc1ccc(F)c([N+](=O)[O-])c1)C(Cl)(Cl)Cl)C(c1ccccc1)c1ccccc1 (stereo not drawn) | 99.3
N#C/C(=C\c1ccc(O)c(O)c1)C(=O)NCc1ccccc1 | 94.7
CN(C)C[C@H]1CCn2c(c(C3=C(c4cn(C)c5ccccc45)C(=O)NC3=O)c3ccccc32)C1 | 67.6
c1ccc(-c2[nH]ncc2-c2ccnc3ccccc23)nc1 | 101
CCN(CC)CCNC(=O)c1c(C)[nH]c(/C=C2\C(=O)Nc3ccc(F)cc32)c1C | 113
CCN(CC)CCNC(=O)c1c(C)[nH]c(/C=C2\C(=O)Nc3ccc(Cl)cc32)c1C | 91.6

Block 2 — cell line: HaCaT; tested at: 100 µM; time: 18 h
Structure (SMILES) | viability [%]
COc1cc2c(cc1OC)[C@@H]1Cc3ccc(OC)c(OC)c3CN1CC2 | 112
Cc1ccc([C@@H]2O[C@H](CO)[C@@H](O)[C@H](O)[C@H]2O)cc1Cc1ccc(-c2ccc(F)cc2)s1 | 16.8
CC(C(=O)O)c1ccc(-c2ccccc2)c(F)c1 (stereo not drawn) | 112
COc1cc2c(cc1Cc1cccc(Cl)c1F)c(=O)c(C(=O)O)cn2[C@H](CO)C(C)C | 95.6
c1ccc2c(c1)CCCC2C1=NCCN1 (stereo not drawn) | 113
C[C@H](Cn1cnc2c(N)ncnc21)OCP(=O)(O)O | 93.7
COc1cc(NS(=O)(=O)c2ccc(N)cc2)ncn1 | 90.9
OCCOc1ccc(/C(=C(/CCCl)c2ccccc2)c2ccccc2)cc1 | 19.3
COC1C(OC(N)=O)C(O)C(Oc2ccc3c(O)c(NC(=O)c4ccc(O)c(CC=C(C)C)c4)c(=O)oc3c2C)OC1(C)C (stereo not drawn) | 99.2
CCOC(=O)CCC(=O)O[C@H]1[C@H](O[C@@H]2[C@@H](C)[C@H](O[C@H]3C[C@@](C)(OC)[C@@H](O)[C@H](C)O3)[C@@H](C)C(=O)O[C@H](CC)[C@@](C)(O)[C@H](O)[C@@H](C)C(=O)[C@H](C)C[C@@]2(C)O)O[C@H](C)C[C@@H]1N(C)C | 96.2
CC(C)(C)NC[C@H](O)COc1nsnc1N1CCOCC1 | 95.1
Cc1onc(-c2c(Cl)cccc2Cl)c1C(=O)N[C@@H]1C(=O)N2[C@@H]1SC(C)(C)[C@@H]2C(=O)O | 114
C[C@@](Cc1ccc(O)c(O)c1)(NN)C(=O)O | 110
COc1ccc2cc1Oc1ccc(cc1)C[C@H]1c3cc(c(OC)cc3CCN1C)Oc1c(OC)c(OC)cc3c1[C@H](C2)N(C)CC3 | 20.4
CCC(=O)O[C@]1(C(=O)SCF)[C@H](C)C[C@H]2[C@@H]3C[C@H](F)C4=CC(=O)C=C[C@]4(C)[C@@]3(F)[C@@H](O)C[C@@]21C | 86.4

Block 3 — tested at: 1 µM
Structure (SMILES): CS(=O)(=O)NCC[C@H](NC(=O)c1cncc2c1cnn2-c1ccc(F)cc1)c1ccnc(S(C)(=O)=O)c1
target | assay | remaining binding
PRKCE (Homo sapiens, UniProt Q02156) | cell-free assay, competition with immobilised ligand | 100%
ULK2 (Homo sapiens, UniProt Q8IYT8) | cell-free assay, competition with immobilised ligand | 100%
CDC42BPG (Homo sapiens, UniProt Q6DT37) | competition binding | 100%
PRKCI (Homo sapiens, UniProt P41743) | cell-free assay, competition with immobilised ligand | 100%
ACVRL1 (Homo sapiens, UniProt P37023) | binding, competition with immobilised ligand | 96%
TGFBR1 (Homo sapiens, UniProt P36897) | cell-free assay, competition with immobilised ligand | 100%
MAPK1 (Homo sapiens, UniProt P28482) | cell-free assay, competition with immobilised ligand | 100%
Tyrosine-protein kinase ABL1, phosphorylated (ABL1, Homo sapiens, UniProt P00519, H396P) | cell-free assay, competition with immobilised ligand | 100%
TRPM6 (Homo sapiens, UniProt Q9BX84) | cell-free assay, competition with immobilised ligand | 100%
PIK3CA (Homo sapiens, UniProt P42336, I800L) | cell-free assay, competition with immobilised ligand | 61%
ALK (Homo sapiens, UniProt Q9UM73, L1196M) | cell-free assay, competition with immobilised ligand | 100%
KIT (Homo sapiens, UniProt P10721, V559D) | cell-free assay, competition with immobilised ligand | 100%
EPHA4 (Homo sapiens, UniProt P54764) | cell-free assay, competition with immobilised ligand | 100%
eIF-2-alpha kinase GCN2, C-terminal kinase domain (EIF2AK4, Homo sapiens, UniProt Q9P2K8, S808G) | cell-free assay, competition with immobilised ligand | 100%
STK32B (Homo sapiens, UniProt Q9NY57) | cell-free assay, competition with immobilised ligand | 67%
TESK1 (Homo sapiens, UniProt Q15569) | cell-free assay, competition with immobilised ligand | 100%
PIP5K1C (Homo sapiens, UniProt O60331) | cell-free assay, competition with immobilised ligand | 78%

Block 4 — effect on: binding; tested at: 1 µM
Structure (SMILES): CN1CCN(C(=O)c2ccc(NC(=O)Nc3ccc(N(C)c4ccnc(Nc5ccc(CS(C)(=O)=O)cc5)n4)cc3)cc2)CC1
target | assay | remaining binding [%]
GRK2 (Homo sapiens, UniProt P25098) |  | 100
MAP3K6 (Homo sapiens, UniProt O95382) |  | 67
NEK1 (Homo sapiens, UniProt Q96PY6) |  | 63
CDK18 (Homo sapiens, UniProt Q07002) |  | 96
HASPIN (Homo sapiens, UniProt Q8TF76) |  | 92
NLK (Homo sapiens, UniProt Q9UBE8) | competition with immobilised ligand | 80
NEK4 (Homo sapiens, UniProt P51957) |  | 85
SYK (Homo sapiens, UniProt P43405) | competition with immobilised ligand | 34
CSNK1D (Homo sapiens, UniProt P48730) |  | 99
MAP3K4 (Homo sapiens, UniProt Q9Y6R4) | competition with immobilised ligand | 4
FRK (Homo sapiens, UniProt P42685) | competition with immobilised ligand | 80
COQ8B (Homo sapiens, UniProt Q96D53) |  | 47

Repeated from above (block 4):
target | assay | remaining binding [%]
NEK1 (Homo sapiens, UniProt Q96PY6) |  | 63
CDK18 (Homo sapiens, UniProt Q07002) |  | 96
HASPIN (Homo sapiens, UniProt Q8TF76) |  | 92
NLK (Homo sapiens, UniProt Q9UBE8) | competition with immobilised ligand | 80
